Experimental data from different studies.
Protocols differ between the studies behind these lines.
BRAF V600E: Serine/threonine-protein kinase B-raf (BRAF, Homo sapiens, UniProt P15056, V600E)
BRAF: Serine/threonine-protein kinase B-raf (BRAF, Homo sapiens, UniProt P15056)

Cc1ccc(-c2c(/C=C(\C#N)C(=O)NC(C)C)n(CCCO)c3ncnc(N)c23)cc1
remaining binding (BRAF V600E; cell-free assay, competition with immobilised ligand; 1 µM): 62%

Nc1ncc2c(n1)-c1c([nH]c3ccc(C4=CCOCC4)cc13)CCC2
remaining binding (BRAF V600E; binding, competition with immobilised ligand; 1 µM): 100%

CC(=O)N1c2ccc(-c3ccc(CNC(=O)c4cn5cc(-c6cnc(N)nc6)nc(N6CCOCC6)c5n4)cc3)cc2CC[C@@H]1C
remaining binding (BRAF V600E; KINOMEscan; 10 µM): 61%

CNC(=O)C1CCN(c2cc(C)c(F)cc2NC(=O)c2ccc(-c3cc(O)ccc3C)c(C)c2)CC1
remaining binding (BRAF; binding, competition with immobilised ligand; 1 µM): 91%

C=CC(=O)N1CCCC(n2c(=O)c3ncccc3n(Cc3ccc(Oc4ccccc4)cc3)c2=O)C1 (stereo not shown)
remaining binding (BRAF; cell-free assay, competition with immobilised ligand; 1 µM): 88%

CNS(=O)(=O)Nc1nccc(Cc2c(C)c3ccc(Oc4ncccc4F)cc3oc2=O)c1F
remaining binding (BRAF; cell-free assay, competition with immobilised ligand; 10 µM): 77%

Cc1cnc2nc1Nc1cccc(c1)COC/C=C/COCc1cc(ccc1OCCN1CCOCC1)N2
remaining binding (BRAF V600E; binding; 0.1 µM): 100%

COc1cc(Nc2nccc(-c3cnn4nc(OC)ccc34)n2)cc(C(F)(F)F)c1
remaining binding (BRAF; binding, competition with immobilised ligand; 1 µM): 87%

COc1ccc(NC(=O)Nc2ccc3c(c2)C(=O)N(C(C)CO)CC(C)C(CN(C)Cc2ccc4c(c2)OCO4)O3)cc1 (stereo not shown)
remaining binding (BRAF; binding, competition with immobilised ligand; 10 µM): 70%

CNC1C[S+]2CC[S+]3CC[S+](C1)[Ru-4]321([N]=C=S)[n]2c3ccc(OC)cc3c3c4c(c5cc(F)c[n+]1c5c32)C(=O)NC4=O (stereo not shown)
remaining binding (BRAF V600E; KinomeScan; 0.1 µM; baseline: untreated): 95%

Cc1ccc(C(=O)Nc2cccc(C(F)(F)F)c2)cc1Nc1cncc(C(N)=O)c1
remaining binding (BRAF V600E; binding, competition with immobilised ligand; 1 µM): 0.15%

CN1CCN(Cc2ccc(NC(=O)c3cccc(C#Cc4cnc(N)c5ncccc45)c3)cc2C(F)(F)F)CC1
remaining binding (BRAF; cell-free assay, competition with immobilised ligand; 50 nM): 3.9%

COc1c(Cl)cccc1Nc1c(-c2ccncc2C#C[C@@]2(C)CCCN2C(=O)/C=C/CN(C)C)[nH]c2c1C(=O)NCC2
remaining binding (BRAF; cell-free assay, competition with immobilised ligand; 3 µM): 14%

C=CC(=O)N1CCc2ccc(-n3c(=O)ccc4cnc5ccc(-c6cnn(C)c6)cc5c43)cc21
remaining binding (BRAF; KINOMEscan; 1 µM; baseline: DMSO control): 100%

CC(C)=CC1OC(C)(C)C2C=C3C(=O)C(Cl)=CC(O)C3C3C(O)C4OC4C(=O)C132 (stereo not shown)
remaining binding (BRAF V600E; cell-free assay, competition with immobilised ligand; 10 µM): 72%

CCN1CCN(Cc2ccc(C(=O)Nc3ccc(C)c(NCc4cnc5[nH]ccc5c4OC)c3)cc2C(F)(F)F)CC1
remaining binding (BRAF V600E; binding, competition with immobilised ligand; 1 µM): 4%

A few entries again:
CNC1C[S+]2CC[S+]3CC[S+](C1)[Ru-4]321([N]=C=S)[n]2c3ccc(OC)cc3c3c4c(c5cc(F)c[n+]1c5c32)C(=O)NC4=O (stereo not shown)
remaining binding (BRAF V600E; KinomeScan; 0.1 µM; baseline: untreated): 95%

Nc1ncc2c(n1)-c1c([nH]c3ccc(C4=CCOCC4)cc13)CCC2
remaining binding (BRAF V600E; binding, competition with immobilised ligand; 1 µM): 100%
